Assay results gathered from unrelated publications.
Several values in a cell are separate wells, animals, samples, runs or records. ± gives the spread as reported.
Chain of UniProt Q8BVQ5 (whole entry, looked up): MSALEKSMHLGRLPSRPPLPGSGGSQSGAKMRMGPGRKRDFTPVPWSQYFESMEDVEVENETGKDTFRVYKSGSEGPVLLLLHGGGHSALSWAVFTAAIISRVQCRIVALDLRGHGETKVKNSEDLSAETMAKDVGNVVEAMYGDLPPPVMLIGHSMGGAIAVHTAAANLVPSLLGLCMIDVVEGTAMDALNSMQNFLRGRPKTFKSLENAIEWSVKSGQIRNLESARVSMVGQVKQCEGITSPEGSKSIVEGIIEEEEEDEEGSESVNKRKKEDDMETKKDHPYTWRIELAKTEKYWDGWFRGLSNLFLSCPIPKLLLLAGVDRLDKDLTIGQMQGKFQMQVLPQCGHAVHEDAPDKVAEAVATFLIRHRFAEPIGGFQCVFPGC
Chain of UniProt A5GZW8 (whole entry, looked up): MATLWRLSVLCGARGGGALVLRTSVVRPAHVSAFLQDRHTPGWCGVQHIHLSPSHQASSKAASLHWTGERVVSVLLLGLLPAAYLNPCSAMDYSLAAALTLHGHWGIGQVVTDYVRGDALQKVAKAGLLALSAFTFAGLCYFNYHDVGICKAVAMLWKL
Chain of UniProt Q007T0 (whole entry, looked up): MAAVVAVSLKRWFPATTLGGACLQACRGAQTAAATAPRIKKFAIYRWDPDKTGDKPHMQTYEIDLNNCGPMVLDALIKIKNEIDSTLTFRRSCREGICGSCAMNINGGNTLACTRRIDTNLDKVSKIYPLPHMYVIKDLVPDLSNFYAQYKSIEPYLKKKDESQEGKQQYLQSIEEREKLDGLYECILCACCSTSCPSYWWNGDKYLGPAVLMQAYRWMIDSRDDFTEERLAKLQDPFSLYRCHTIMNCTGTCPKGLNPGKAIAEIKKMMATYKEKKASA
Chain of UniProt D0VWV4 (whole entry, looked up): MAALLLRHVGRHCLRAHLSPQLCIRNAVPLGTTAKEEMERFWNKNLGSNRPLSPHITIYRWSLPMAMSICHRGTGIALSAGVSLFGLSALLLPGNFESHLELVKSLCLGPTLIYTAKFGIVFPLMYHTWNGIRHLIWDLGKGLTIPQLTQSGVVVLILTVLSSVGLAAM
Chain of UniProt P14854 (whole entry, looked up): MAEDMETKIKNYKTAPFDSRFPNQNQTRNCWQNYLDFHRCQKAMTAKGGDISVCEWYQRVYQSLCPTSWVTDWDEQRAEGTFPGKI
Chain of UniProt P33533 (whole entry, looked up): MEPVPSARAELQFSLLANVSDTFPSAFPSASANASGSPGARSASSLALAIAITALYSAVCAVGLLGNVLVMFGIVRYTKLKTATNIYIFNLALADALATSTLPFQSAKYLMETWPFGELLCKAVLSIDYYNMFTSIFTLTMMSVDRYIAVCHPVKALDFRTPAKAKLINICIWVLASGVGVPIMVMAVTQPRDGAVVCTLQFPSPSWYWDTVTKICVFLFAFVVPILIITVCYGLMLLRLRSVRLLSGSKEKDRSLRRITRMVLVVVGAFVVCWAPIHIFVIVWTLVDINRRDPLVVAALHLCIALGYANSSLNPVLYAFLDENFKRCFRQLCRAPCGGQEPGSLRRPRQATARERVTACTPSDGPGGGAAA
Chain of UniProt P16591 (whole entry, looked up): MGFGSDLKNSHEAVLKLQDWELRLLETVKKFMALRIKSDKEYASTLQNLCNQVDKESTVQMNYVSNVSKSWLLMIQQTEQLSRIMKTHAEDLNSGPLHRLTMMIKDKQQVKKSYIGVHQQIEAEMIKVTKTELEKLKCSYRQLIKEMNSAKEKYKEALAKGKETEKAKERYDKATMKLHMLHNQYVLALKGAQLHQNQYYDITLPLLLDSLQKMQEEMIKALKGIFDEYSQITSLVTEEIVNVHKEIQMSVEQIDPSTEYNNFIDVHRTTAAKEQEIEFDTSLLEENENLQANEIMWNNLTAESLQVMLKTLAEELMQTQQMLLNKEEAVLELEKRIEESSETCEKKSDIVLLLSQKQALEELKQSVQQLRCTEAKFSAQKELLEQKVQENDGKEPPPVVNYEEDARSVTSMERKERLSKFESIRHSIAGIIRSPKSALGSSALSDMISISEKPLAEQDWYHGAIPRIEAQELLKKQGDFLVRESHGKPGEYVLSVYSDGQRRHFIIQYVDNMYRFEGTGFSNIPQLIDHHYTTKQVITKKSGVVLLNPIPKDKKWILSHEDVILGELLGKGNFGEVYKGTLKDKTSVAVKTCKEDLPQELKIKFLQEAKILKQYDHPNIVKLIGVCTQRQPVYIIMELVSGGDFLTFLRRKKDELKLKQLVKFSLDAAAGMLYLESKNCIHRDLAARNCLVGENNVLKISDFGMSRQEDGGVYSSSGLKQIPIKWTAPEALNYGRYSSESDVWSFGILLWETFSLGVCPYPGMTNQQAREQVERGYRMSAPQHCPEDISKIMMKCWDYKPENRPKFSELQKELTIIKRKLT
Chain of UniProt P49759 (whole entry, looked up): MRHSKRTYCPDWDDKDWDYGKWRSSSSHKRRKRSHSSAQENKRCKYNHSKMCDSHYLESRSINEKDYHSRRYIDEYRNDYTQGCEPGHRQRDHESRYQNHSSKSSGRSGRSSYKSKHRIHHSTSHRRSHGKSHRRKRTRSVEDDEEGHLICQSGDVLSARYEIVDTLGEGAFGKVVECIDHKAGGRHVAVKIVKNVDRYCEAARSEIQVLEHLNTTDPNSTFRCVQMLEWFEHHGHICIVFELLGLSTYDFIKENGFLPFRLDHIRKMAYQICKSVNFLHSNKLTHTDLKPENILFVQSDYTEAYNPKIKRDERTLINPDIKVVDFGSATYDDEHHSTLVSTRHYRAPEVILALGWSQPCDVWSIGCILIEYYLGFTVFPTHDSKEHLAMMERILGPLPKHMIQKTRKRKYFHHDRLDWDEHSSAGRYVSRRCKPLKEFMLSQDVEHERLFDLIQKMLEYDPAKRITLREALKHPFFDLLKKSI
Chain of UniProt P35367 (whole entry, looked up): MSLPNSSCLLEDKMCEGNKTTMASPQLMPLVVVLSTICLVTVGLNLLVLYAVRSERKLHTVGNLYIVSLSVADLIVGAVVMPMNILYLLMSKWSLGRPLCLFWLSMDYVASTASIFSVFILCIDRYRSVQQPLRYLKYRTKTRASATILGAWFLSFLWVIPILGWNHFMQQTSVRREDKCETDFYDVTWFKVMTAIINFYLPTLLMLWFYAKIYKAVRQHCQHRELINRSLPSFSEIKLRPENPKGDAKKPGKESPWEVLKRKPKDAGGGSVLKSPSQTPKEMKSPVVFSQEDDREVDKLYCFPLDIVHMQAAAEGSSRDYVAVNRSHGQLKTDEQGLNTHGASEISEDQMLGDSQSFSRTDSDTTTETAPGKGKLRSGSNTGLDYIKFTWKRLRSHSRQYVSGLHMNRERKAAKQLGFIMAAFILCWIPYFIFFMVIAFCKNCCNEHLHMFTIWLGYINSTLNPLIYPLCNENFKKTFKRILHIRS
Chain of UniProt P17787 (whole entry, looked up): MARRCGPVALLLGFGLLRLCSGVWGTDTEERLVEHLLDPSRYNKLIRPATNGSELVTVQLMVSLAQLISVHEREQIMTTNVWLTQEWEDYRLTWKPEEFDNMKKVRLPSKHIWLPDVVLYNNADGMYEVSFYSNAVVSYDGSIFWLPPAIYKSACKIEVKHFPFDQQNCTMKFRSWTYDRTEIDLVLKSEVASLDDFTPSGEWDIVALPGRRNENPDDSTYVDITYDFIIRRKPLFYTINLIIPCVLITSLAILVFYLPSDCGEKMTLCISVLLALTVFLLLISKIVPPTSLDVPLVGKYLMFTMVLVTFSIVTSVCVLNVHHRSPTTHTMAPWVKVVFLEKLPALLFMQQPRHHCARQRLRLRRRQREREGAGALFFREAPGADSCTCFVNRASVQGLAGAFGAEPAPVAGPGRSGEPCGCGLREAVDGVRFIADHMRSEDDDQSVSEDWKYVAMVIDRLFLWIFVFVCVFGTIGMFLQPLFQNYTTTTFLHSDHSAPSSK
Chain of UniProt Q13554 (whole entry, looked up): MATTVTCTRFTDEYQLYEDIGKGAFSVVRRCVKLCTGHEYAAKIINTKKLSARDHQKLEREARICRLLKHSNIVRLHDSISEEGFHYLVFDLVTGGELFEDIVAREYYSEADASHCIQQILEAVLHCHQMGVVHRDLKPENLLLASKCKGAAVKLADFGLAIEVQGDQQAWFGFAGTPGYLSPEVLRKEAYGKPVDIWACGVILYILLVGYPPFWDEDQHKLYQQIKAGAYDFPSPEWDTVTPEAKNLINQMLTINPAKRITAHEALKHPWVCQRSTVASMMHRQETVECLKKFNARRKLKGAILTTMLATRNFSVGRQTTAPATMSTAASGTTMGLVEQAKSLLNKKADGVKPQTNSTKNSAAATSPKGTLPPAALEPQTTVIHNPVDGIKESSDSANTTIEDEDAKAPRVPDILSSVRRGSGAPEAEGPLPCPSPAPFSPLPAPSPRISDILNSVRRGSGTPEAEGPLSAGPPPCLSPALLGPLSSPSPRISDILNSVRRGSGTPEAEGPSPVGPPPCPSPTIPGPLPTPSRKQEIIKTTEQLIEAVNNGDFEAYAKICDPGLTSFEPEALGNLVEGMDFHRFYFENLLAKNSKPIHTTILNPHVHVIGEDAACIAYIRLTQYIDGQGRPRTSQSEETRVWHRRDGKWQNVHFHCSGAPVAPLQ
Chain of UniProt P0A988 (whole entry, unmodified, looked up): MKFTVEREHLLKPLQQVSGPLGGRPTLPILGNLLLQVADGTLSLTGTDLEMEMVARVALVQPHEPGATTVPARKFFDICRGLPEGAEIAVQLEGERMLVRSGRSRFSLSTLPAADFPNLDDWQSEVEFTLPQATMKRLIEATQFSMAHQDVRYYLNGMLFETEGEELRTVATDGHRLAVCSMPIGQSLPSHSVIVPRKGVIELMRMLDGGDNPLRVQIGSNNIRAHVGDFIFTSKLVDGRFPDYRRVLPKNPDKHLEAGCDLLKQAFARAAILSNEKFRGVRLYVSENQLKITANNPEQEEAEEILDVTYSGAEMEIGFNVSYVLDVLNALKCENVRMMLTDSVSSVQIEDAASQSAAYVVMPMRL

CC[C@H](C)[C@H](NC(=O)[C@H](CO)NC(=O)[C@H](Cc1ccc(O)cc1)NC(=O)[C@H](Cc1ccc(O)cc1)NC(=O)[C@H](CC(N)=O)NC(=O)CNC(=O)[C@H](CO)NC(=O)[C@H](Cc1ccc(O)cc1)NC(=O)[C@H](CO)NC(=O)[C@H](CO)NC(=O)[C@H](CC(N)=O)NC(=O)COCCOCCNC(=O)CN1CCN(CC(=O)O)CCN(CC(=O)O)CCN(CC(=O)O)CC1)C(=O)N[C@@H](CC(C)C)C(N)=O [copper-64 labelled]  tissue uptake (dynamic PET; KPC mouse Ptf1a-CreER tdTomato, pancreas; intravenous, dose not given, 4.5 min, 84 d after tamoxifen): 13.8 %ID/mL
C#CCCCCOc1ccc2c(c1)CCCN2C(=O)CCl  reactivity ratio (Cytochrome c oxidase subunit 6B1 (Homo sapiens, UniProt P14854); mass spectrometry profiling, item: COX6B1; H460 cell lysate; 100 µM over 10 µM, UniProt P14854; reference: high over low concentration): 1.55
CCn1nc(Cl)c2c1-c1cnc(N)c(c1)O[C@H](C)c1cc(F)ccc1-c1nn(C)cc1C2  selectivity ratio (MAP4K5 (Homo sapiens, UniProt Q9Y4K4); kinase activity, inhibitor; reference: IC50 MAP4K5 over IC50 ALK): 280 fold
CCN(N=Cc1cnc2ccc(Br)cn12)S(=O)(=O)c1cc([N+](=O)[O-])ccc1C  IC50 fold change (PIK3CB (Homo sapiens, UniProt P42338, M783K); reference: mutant over wild-type p110β): 0.5
COc1ccccc1-c1n[nH]c2nc(N[C@H]3CC[C@H](NS(=O)(=O)CC(C)C)CC3)ncc12  relative abundance (bead binding, competition bead pull-down, item: LINJ.33.2570; Leishmania donovani extract; 10 µM; reference: vehicle): 0.92
CC(=O)N[C@@H](CCC(N)=O)C(=O)N[C@@H](CC1CCCCC1)C(=O)N[C@@H](CNC(=O)CCl)C(=O)N[C@@H](CC(C)C)C(=O)N[C@@H](Cc1ccccc1)C(=O)O  -TΔS (Beta sliding clamp (Escherichia coli, UniProt P0A988, H175G); isothermal titration calorimetry; 25 °C): 1.2 kcal/mol
CC(C)[C@H]1NC(=O)C[C@H]2/C=C/CCSSC[C@@H](NC1=O)C(=O)N[C@H](Cc1cccc3ccccc13)C(=O)NCC(=O)O2  inhibition (CLK1 (Homo sapiens, UniProt P49759); enzyme activity, inhibitor; 10 µM): 0.4%
O=C1NC2(CC2)COc2ncc(F)cc2[C@H]2COCCN2c2ccn3ncc1c3n2  serum total protein (Sprague-Dawley rat, male, serum; oral, 20 mg/kg/day, end of treatment, 4-week subacute toxicity): 58 ± 0.7 g/L
CCCC[C@H]1CNCCN1C[C@@H]1CCCN1C[C@H](CC1CCCCC1)N1CCN(CCc2ccc(Cl)c(Cl)c2)[C@H](Cc2ccc(O)cc2)C1  remaining binding (Oprd1 (Rattus norvegicus, UniProt P33533); radioligand binding; rat brain membranes; 500 nM, pH 7.5, 25 °C, added: 2 nM [3H]DPDPE): 88.7%
CON(C(=O)c1cn(C)nc1C(F)F)C(C)Cc1c(Cl)cc(Cl)cc1Cl (stereo not drawn)  reaction velocity (SDHD/SDHC/SDHB (Sus scrofa, UniProt A5GZW8+D0VWV4+Q007T0); enzyme activity, inhibitor, DCIP reduction; pig; 0.6 µM, added: DCIP 80 µM): 0.00882 µM/s and 0.00822 µM/s and 0.00851 µM/s
COc1ccccc1-c1n[nH]c2nc(NC3CCN(C(=O)Cc4ccc(F)cc4F)CC3)ncc12  relative abundance (bead binding, competition bead pull-down, item: LINJ.33.0950; Leishmania donovani extract; 10 µM; reference: vehicle): 0.9
CC(C)(C)C(=O)OCOP(=O)(OCOC(=O)C(C)(C)C)C1CCCN(O)C1=O (stereo not drawn)  log LC50 (MDA-MB-435): > -4 log M
Cc1cc(C(=O)Nc2nc3cccc(C)c3n2[C@H]2CCCCN(C(=O)/C=C/CN(C)C)C2)ccn1  multinucleated cells (Trypanosoma brucei; propidium iodide flow cytometry; bloodstream form; concentration not given, 6 h): 7.73%
CC(C)CC(O)(CC(C)C)c1cn(C(=O)N2CCCC2)nn1  SILAC activity ratio (Protein phosphatase methylesterase 1 (Mus musculus, UniProt Q8BVQ5); probe labelling, inhibitor, competitive ABPP-SILAC, item: Ppme1; mouse T cells; concentration not given, 4 h, single peptide; reference: treated over DMSO cells, lower = stronger inhibition): 1.22 and 1.25 and 1 and 1.13 and 1.08
N[C@H](C(=O)N1CCCC1)C1CCN(c2nccc3c(-c4ncc(Cl)cc4Cl)cccc23)CC1  inhibition (HRH1 (Homo sapiens, UniProt P35367); functional response, antagonist; 10 µM): 15%
CN(C)[C@H]1C[C@@]23CC[C@@]4(O2)C(=CC[C@]2(C)[C@@H](c5ccc6ccncc6c5)CC[C@H]24)C=C3[C@@H](O)[C@@H]1O  inhibition (FER (Homo sapiens, UniProt P16591); ATP probe labelling, inhibitor, KiNativ profiling; 1 µM): -4.2%
CS(C)(=O)=Nc1ccc(-c2ccc(-c3nc4cc(O[C@@H]5CO[C@H]6[C@@H]5OC[C@H]6O)[nH]c4cc3F)cc2)cc1  inhibition (Neuronal acetylcholine receptor; alpha4/beta2 (Homo sapiens, UniProt P17787+P43681); ligand displacement, radioligand; 10 µM): -6%
O=C1NC(=O)c2c1c1cc(F)c[n+]3c1c1c2c2cc(O)ccc2[n]1[Ru-4]312([N]=C=S)[S+]3CC[S+]1CC[S+]2CC3 (stereo not drawn)  remaining activity (CAMK2B (Homo sapiens, UniProt Q13554); enzyme activity; 100 nM, human enzyme, added: 10 µM ATP; reference: untreated): 28%

For quick reference, copied from above:
CN(C)[C@H]1C[C@@]23CC[C@@]4(O2)C(=CC[C@]2(C)[C@@H](c5ccc6ccncc6c5)CC[C@H]24)C=C3[C@@H](O)[C@@H]1O  inhibition (FER (Homo sapiens, UniProt P16591); ATP probe labelling, inhibitor, KiNativ profiling; 1 µM): -4.2%
